Results collected from several papers.
Parts stem from different laboratories: compare values within a part only. Values joined by “and” are separate records of one study, mostly repeats; a detail may differ. ± marks the error that the study gave.
Chain of UniProt Q15375 (whole entry, looked up): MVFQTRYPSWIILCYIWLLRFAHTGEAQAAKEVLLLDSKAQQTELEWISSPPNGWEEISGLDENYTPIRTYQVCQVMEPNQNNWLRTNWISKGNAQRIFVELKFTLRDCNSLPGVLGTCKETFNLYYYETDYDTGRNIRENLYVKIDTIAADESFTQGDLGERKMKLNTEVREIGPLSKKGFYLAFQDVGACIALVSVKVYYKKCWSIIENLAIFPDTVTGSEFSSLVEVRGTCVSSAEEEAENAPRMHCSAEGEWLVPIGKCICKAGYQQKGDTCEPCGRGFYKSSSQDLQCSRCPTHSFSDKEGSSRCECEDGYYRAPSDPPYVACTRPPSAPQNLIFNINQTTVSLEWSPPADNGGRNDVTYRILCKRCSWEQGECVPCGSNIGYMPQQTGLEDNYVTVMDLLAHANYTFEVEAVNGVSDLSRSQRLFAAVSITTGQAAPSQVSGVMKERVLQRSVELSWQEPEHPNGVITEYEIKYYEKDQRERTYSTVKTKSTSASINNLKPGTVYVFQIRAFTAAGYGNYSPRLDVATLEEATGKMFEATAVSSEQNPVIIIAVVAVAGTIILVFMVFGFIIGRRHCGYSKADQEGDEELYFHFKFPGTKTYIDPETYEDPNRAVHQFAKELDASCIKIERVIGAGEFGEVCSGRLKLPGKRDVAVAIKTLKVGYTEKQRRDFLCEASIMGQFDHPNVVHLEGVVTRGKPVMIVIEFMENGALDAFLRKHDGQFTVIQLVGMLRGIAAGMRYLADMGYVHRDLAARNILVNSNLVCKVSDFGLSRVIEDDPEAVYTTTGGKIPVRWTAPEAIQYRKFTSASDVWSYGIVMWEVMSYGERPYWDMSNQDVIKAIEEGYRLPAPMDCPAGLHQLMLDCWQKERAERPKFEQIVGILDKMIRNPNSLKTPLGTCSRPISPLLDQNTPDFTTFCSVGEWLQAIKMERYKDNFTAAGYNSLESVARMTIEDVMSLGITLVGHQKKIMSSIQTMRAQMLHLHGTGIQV
Chain of UniProt Q9HBH9 (whole entry, looked up): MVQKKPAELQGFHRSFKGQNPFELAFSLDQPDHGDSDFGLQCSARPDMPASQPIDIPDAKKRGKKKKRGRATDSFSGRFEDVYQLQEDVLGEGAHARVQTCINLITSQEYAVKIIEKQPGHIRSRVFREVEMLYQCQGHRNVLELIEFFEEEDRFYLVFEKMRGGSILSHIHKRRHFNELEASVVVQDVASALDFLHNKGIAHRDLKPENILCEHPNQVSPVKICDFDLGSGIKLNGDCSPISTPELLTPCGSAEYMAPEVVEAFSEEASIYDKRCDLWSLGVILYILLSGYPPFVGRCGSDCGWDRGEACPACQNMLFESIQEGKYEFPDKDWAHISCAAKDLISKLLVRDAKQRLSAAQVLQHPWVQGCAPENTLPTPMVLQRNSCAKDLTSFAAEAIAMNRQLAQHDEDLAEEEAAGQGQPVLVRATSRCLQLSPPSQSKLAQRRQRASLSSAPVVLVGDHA
Chain of UniProt P15056 (whole entry, looked up): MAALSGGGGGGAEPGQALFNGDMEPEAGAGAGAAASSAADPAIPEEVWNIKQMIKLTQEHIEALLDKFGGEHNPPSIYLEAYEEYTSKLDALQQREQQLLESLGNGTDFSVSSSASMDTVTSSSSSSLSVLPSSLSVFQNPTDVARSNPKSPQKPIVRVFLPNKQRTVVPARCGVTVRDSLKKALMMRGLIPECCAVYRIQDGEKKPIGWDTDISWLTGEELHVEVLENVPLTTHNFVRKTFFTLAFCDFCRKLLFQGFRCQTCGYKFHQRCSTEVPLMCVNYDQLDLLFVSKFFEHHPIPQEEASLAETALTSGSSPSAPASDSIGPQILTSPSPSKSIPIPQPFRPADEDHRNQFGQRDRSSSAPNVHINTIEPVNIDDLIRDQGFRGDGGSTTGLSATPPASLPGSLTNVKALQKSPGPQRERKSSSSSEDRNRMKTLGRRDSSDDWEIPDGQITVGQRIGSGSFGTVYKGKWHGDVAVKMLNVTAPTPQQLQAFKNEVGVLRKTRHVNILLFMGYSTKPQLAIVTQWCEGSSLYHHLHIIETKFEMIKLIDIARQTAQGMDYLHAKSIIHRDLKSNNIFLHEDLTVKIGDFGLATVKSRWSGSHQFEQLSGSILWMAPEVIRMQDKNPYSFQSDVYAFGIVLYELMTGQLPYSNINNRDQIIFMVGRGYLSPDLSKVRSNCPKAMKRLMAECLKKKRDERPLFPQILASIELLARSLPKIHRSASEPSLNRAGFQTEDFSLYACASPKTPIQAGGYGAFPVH
Chain of UniProt O75116 (whole entry, looked up): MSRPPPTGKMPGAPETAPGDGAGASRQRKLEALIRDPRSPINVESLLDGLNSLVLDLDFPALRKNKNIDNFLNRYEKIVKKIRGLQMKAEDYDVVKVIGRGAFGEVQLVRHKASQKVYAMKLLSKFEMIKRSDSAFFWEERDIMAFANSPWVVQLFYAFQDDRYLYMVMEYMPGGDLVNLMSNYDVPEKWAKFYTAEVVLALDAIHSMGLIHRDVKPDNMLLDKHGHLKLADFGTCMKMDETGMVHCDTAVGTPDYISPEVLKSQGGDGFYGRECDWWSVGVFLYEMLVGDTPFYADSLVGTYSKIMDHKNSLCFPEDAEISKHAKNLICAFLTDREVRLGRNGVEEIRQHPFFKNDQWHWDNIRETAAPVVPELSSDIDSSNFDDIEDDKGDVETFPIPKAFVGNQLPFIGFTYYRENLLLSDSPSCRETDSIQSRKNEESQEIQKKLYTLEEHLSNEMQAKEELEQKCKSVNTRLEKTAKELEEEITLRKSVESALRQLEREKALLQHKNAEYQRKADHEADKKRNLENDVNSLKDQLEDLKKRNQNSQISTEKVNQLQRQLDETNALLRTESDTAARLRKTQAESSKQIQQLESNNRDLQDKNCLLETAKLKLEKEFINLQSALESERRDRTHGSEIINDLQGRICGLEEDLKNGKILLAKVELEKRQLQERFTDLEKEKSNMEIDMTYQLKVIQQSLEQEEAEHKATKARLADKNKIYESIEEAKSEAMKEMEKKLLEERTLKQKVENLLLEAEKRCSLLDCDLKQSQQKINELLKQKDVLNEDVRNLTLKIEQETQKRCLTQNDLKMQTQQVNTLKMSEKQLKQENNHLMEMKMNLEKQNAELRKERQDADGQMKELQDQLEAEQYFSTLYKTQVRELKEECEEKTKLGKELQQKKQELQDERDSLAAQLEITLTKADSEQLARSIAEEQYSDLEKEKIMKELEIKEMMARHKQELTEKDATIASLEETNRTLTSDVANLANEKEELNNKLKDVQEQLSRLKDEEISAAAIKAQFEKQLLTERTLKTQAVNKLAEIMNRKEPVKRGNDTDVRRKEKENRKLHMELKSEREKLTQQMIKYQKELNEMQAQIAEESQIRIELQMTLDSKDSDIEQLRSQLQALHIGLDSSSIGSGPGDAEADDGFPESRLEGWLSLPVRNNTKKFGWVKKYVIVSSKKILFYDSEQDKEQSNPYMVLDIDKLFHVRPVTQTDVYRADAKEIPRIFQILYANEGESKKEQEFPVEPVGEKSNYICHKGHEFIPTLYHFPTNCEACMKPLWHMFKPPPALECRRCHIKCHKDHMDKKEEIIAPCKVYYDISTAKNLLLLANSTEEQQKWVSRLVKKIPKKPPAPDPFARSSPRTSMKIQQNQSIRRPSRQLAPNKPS
Chain of UniProt Q02750 (whole entry, looked up): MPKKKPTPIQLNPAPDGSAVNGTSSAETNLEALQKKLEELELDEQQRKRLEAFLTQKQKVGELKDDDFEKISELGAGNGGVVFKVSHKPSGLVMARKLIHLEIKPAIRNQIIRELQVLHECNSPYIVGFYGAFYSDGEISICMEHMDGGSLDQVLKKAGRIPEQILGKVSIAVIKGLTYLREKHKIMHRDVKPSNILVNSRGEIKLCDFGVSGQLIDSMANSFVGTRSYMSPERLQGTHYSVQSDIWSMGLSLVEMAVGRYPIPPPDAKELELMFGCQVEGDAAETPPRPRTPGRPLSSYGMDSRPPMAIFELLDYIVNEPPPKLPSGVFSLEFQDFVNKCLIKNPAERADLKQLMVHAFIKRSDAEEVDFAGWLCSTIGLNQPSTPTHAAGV
Chain of UniProt P48729 (whole entry, looked up): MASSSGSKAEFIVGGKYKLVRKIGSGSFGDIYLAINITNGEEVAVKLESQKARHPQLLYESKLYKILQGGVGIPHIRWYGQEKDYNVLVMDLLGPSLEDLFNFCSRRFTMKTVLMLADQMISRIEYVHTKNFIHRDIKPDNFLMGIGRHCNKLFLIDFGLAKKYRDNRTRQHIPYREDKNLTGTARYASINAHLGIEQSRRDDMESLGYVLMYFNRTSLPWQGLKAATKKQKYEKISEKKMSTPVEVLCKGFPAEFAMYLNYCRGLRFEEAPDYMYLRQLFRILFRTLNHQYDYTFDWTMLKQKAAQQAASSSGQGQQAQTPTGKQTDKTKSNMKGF

Sample 1
Compound: CN1CCN(c2ccc3nc(-c4c(N)c5c(F)cccc5[nH]c4=O)[nH]c3c2)CC1
Observed: enzyme activity
Mode: inhibitor
Tested at: 0.5 µM
Reference: control
| target | remaining activity |
| --- | --- |
| KIT (Homo sapiens, UniProt P10721) | 9.89% |
| MKNK2 (Homo sapiens, UniProt Q9HBH9) | 89.6% |
| PRKCI (Homo sapiens, UniProt P41743) | 105% |
| AKT3 (Homo sapiens, UniProt Q9Y243) | 88% |
| CSNK1A1 (Homo sapiens, UniProt P48729) | 95.1% |
| PRKCD (Homo sapiens, UniProt Q05655) | 90.9% |

Sample 2
Target: Beta-1 adrenergic receptor (ADRB1, Homo sapiens, UniProt P08588)
Chain of UniProt P08588 (whole entry, looked up): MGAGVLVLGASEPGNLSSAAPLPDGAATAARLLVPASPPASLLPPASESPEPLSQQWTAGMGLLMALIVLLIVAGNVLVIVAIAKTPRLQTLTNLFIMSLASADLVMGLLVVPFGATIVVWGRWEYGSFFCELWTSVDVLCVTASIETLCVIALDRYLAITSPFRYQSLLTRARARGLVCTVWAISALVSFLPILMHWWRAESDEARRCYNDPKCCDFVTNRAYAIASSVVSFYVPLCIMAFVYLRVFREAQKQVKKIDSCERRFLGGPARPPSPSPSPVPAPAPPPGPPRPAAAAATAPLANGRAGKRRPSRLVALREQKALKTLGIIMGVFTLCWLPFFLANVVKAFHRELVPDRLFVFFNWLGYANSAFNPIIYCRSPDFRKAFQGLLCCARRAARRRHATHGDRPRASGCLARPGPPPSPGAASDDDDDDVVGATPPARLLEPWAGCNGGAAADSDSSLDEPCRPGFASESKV
Mode: agonist
| Structure (SMILES) | EC50 [µM] |
| --- | --- |
| CCOc1ccc(-c2cc3c(=O)n(CC(O)c4ccc(C(C)C)cc4)ccn3n2)cc1 (centres unmarked) | ≥ 100 |
| CN(C)c1ccc(CN2CCNc3cc(Nc4cccnc4)ncc3C2)cc1 | ≥ 100 |
| CNC(=O)c1cc2cc(-c3c(C)noc3C)nc(-c3ccccc3C)c2o1 | ≥ 100 |
| COCCn1ccc2c(C3=CCOCC3)nc(-c3cccc(O)c3)cc21 | ≥ 100 |
| N#CC1CCN(Cc2ccccc2OCC(O)CN2CCCCC2)CC1 (centres unmarked) | ≥ 100 |
| N#CC(c1ccccc1)c1cnn(-c2ccccc2)c(=O)c1Cl (centres unmarked) | ≥ 100 |
| O=C(COc1ccccc1)Nc1ccc([C@@H](O)[C@H]2COCC(=O)N2)cc1 | ≥ 100 |
| COc1ccccc1N1CCN([S+](=O)([O-])c2cc(C)c(C)cc2C)CC1 | ≥ 100 |

Sample 3
Structure (SMILES): CCCCN(CCCC)C(=O)CN1C[C@H](c2cc(OC)c3c(c2)OCO3)[C@@H](C(=O)O)[C@@H]1CC(C)(C)CCC
Observed: cell-free assay
Method: competition with immobilised ligand
Tested at: 1 µM
| target | remaining binding |
| --- | --- |
| DCLK3 (Homo sapiens, UniProt Q9C098) | 91.4% |
| ERBB3 (Homo sapiens, UniProt P21860) | 100% |
| CAMK4 (Homo sapiens, UniProt Q16566) | 100% |
| PI4KB (Homo sapiens, UniProt Q9UBF8) | 80.5% |
| BRAF (Homo sapiens, UniProt P15056) | 90.4% |
| MST1R (Homo sapiens, UniProt Q04912) | 100% |
| ROCK2 (Homo sapiens, UniProt O75116) | 85.2% |
| MAP2K1 (Homo sapiens, UniProt Q02750) | 64.8% |
| Tyrosine-protein kinase ABL1, non-phosphorylated (ABL1, Homo sapiens, UniProt P00519, F317L) | 100% |
| PIK3CD (Homo sapiens, UniProt O00329) | 100% |
| HUNK (Homo sapiens, UniProt P57058) | 100% |
| CAMK2D (Homo sapiens, UniProt Q13557) | 100% |
| PRKG1 (Homo sapiens, UniProt Q13976) | 100% |
| EPHA7 (Homo sapiens, UniProt Q15375) | 100% |
| PIK3C2B (Homo sapiens, UniProt O00750) | 65.9% |

Further values, each from its own experiment
| Structure (SMILES) | tested on | test | system | setting | endpoint | result |
| --- | --- | --- | --- | --- | --- | --- |
| COc1ccc(-c2c(Nc3ccccn3)[nH]c3c(C4=CCCCC4)c(-c4ccccc4)nn3c2=O)cc1 | – | – | human, plasma | oral, 200 mg twice daily | dose-normalised Cmax | 69 ng/mL/mg and 60.5 ng/mL/mg and 75 ng/mL/mg |
| COc1cc(C(=O)N2CCC(N3CCN(C)CC3)CC2)ccc1Nc1ncc2c(n1)N(C)c1ccccc1C(=O)N2C | EPH-B4 | kinase activity | – | 10 µM | remaining activity | 107 ± 12% |
| CN1CCN(CCOc2cc(OC3CCOCC3)c3c(Nc4c(Cl)ccc5c4OCO5)ncnc3c2)CC1 | ACVR2B (Homo sapiens, UniProt Q13705) | kinase-HSP90-CDC37 interaction, LUMIER | human cells | – | EC50 | 5.23 µM |

Excerpt of the above (sample 2):
| Structure (SMILES) | EC50 [µM] |
| --- | --- |
| COCCn1ccc2c(C3=CCOCC3)nc(-c3cccc(O)c3)cc21 | ≥ 100 |
| N#CC1CCN(Cc2ccccc2OCC(O)CN2CCCCC2)CC1 (centres unmarked) | ≥ 100 |
| COc1ccccc1N1CCN([S+](=O)([O-])c2cc(C)c(C)cc2C)CC1 | ≥ 100 |
| CCOc1ccc(-c2cc3c(=O)n(CC(O)c4ccc(C(C)C)cc4)ccn3n2)cc1 (centres unmarked) | ≥ 100 |
